Experimental data pooled from the literature.
Each line is one published result; not all experiments were run side by side.

Structure (SMILES) | assay | test system | conditions | how to read | endpoint | value
CN1CCN(c2cc(-c3ccccc3CO)c(N(C)C(=O)C(C)(C)c3cc(C(F)(F)F)cc(C(F)(F)F)c3)cn2)CC1 | – | human, plasma | dose not given | – | time to terminal elimination phase | 24 h
CC(C)(O)c1ncc([S@](N)(=O)=NC(=O)Nc2c3c(cc4c2CCC4)CCC3)s1 | – | healthy human subjects, urine | oral, multiple ascending dose | – | time of main urinary excretion | ≤ 12 h
Cc1ccccc1-c1cc(N2CC[N+](C)([O-])CC2)ncc1N(C)C(=O)C(C)(C)c1cc(C(F)(F)F)cc(C(F)(F)F)c1 | – | human, plasma | – | – | time quantifiable in plasma | 4 days
[11CH3]Nc1ccc(-c2nc3ccc(O)cc3o2)cn1 | PET | human, brain | intravenous, dose not given | – | time to peak brain radioactivity | ~1 min
CC(=O)NCCc1c[nH]c(=S)n1[C@H]1COc2c(F)cc(F)cc2C1 | – | healthy young male human, plasma | oral, 25 to 600 mg once daily | – | time to steady state | ≤ 13000 min
CC(C)[C@H](NC(=O)CNC(=O)[C@H](CCC(N)=O)NC(=O)[C@H](C)N)C(=O)O | – | human, plasma | continuous infusion, dose not given | – | time to steady state | 15 min
Nc1ncnc(NCC2CCN(C(=O)C(O)CO)CC2)c1-c1ccc(Oc2ccccc2)cc1 (stereo not drawn) | – | healthy male human, plasma | oral, 75 mg evobrutinib | up to | time observed | ≤ 8 h
CC(C)[C@H](NC(=O)CNC(=O)[C@H](CCC(N)=O)NC(=O)[C@H](C)N)C(=O)O | LC-MS/MS | healthy human volunteers, plasma | continuous intravenous infusion, 15, 45, 90 mg/kg/h, 2 h infusion, experimental endotoxaemia | – | time to steady state | ≤ 15 min
CCCCCCCOc1ccc(CC[C@](N)(CO)COP(=O)(O)O)cc1C(F)(F)F | – | male humans, plasma | oral | – | time to steady state | ~10 weeks

For quick reference, copied from above:
Structure (SMILES) | assay | test system | conditions | how to read | endpoint | value
CN1CCN(c2cc(-c3ccccc3CO)c(N(C)C(=O)C(C)(C)c3cc(C(F)(F)F)cc(C(F)(F)F)c3)cn2)CC1 | – | human, plasma | dose not given | – | time to terminal elimination phase | 24 h
